# Experimental data pooled from the literature.
# Numbered parts are unrelated; each lists some results of a single study. Changes are numbered by the printed parent chain.
# Chain of UniProt Q02779 (whole entry, looked up): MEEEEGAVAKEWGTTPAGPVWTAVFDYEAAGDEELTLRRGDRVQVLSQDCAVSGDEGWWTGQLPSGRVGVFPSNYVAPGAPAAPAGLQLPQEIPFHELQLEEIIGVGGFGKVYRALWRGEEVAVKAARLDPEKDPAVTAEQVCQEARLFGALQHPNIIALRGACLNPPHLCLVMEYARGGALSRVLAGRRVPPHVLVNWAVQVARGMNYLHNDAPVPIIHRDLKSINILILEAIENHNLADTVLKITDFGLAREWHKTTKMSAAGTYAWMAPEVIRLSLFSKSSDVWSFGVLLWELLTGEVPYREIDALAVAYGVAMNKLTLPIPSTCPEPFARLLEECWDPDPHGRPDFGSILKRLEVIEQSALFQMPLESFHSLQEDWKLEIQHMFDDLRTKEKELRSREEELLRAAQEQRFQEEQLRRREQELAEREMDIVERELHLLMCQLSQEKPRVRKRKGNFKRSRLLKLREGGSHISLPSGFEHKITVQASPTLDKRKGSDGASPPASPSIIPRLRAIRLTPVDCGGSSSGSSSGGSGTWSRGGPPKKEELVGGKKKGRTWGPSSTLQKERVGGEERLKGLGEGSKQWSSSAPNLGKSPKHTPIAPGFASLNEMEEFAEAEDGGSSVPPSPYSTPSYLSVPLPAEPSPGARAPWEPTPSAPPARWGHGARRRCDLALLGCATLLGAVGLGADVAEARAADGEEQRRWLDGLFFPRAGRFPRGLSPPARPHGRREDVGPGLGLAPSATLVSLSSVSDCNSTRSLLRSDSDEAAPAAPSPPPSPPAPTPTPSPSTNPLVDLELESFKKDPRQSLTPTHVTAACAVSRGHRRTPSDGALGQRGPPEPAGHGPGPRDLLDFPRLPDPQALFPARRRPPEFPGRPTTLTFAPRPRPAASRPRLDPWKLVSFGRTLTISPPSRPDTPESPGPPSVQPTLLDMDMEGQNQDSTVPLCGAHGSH
# Chain of UniProt P50750 (whole entry, looked up): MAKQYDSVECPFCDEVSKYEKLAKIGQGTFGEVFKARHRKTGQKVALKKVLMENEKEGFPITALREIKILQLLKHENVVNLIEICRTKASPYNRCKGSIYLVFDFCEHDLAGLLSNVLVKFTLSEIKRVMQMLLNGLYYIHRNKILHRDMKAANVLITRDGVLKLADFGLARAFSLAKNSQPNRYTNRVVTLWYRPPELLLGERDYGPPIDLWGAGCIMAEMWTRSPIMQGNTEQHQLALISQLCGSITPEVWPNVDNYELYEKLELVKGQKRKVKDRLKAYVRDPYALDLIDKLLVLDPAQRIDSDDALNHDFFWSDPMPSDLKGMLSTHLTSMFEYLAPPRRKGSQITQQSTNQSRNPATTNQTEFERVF
# Chain of UniProt Q9HBH9 (whole entry, looked up): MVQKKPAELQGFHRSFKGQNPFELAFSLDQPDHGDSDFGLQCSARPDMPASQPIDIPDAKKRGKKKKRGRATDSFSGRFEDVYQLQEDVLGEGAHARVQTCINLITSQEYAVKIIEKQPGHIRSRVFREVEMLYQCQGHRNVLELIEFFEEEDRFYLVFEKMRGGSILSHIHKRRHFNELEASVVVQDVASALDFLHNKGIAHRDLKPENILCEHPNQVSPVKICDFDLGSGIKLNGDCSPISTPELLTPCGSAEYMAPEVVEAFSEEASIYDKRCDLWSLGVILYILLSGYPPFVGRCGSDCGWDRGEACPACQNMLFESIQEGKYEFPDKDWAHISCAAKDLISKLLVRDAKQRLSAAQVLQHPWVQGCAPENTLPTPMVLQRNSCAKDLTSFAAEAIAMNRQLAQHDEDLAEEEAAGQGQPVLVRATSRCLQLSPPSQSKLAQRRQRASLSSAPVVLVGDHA
# Chain of UniProt P10721 (whole entry, looked up): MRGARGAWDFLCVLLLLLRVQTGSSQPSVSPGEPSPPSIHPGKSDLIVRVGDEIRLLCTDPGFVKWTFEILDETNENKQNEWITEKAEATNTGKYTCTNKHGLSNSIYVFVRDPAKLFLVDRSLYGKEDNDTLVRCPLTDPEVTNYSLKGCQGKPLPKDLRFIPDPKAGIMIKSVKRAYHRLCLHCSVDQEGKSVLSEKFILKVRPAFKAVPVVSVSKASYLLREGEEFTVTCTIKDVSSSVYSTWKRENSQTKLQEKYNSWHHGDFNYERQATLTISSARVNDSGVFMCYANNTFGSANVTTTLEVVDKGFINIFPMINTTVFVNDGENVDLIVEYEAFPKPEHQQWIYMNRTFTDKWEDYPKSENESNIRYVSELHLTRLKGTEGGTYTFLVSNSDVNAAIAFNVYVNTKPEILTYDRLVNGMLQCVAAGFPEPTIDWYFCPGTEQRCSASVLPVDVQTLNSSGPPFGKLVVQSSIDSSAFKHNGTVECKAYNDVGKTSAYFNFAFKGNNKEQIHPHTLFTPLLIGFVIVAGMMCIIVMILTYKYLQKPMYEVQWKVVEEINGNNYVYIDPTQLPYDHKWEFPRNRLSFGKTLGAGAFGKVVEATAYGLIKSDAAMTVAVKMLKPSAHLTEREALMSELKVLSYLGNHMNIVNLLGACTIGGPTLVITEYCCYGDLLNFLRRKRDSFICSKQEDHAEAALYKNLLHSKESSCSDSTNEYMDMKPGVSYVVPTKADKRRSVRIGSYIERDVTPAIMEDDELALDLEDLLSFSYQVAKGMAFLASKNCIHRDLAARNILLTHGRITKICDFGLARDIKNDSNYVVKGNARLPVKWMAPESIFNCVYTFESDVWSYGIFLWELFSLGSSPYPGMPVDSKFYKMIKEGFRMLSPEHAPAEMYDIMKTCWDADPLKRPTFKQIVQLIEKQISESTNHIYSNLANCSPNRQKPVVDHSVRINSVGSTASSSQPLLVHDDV
# Chain of UniProt Q13976 (whole entry, looked up): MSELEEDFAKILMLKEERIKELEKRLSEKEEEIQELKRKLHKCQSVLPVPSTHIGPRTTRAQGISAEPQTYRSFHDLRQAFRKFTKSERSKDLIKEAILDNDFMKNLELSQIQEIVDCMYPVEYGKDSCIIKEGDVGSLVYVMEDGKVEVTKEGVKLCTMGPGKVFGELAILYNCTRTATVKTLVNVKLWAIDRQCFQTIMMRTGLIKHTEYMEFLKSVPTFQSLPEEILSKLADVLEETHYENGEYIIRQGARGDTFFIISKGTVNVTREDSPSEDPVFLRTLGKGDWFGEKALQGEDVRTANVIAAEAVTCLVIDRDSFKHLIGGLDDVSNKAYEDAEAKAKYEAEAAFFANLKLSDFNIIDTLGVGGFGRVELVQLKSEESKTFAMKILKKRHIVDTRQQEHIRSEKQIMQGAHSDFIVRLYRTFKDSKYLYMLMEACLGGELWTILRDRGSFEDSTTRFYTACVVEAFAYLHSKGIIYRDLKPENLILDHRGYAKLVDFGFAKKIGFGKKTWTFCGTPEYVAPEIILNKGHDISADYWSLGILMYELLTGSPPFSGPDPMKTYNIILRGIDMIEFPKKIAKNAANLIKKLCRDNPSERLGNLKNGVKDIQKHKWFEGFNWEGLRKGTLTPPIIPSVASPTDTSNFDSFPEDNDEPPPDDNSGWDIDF
# Chain of UniProt P52564 (whole entry, looked up): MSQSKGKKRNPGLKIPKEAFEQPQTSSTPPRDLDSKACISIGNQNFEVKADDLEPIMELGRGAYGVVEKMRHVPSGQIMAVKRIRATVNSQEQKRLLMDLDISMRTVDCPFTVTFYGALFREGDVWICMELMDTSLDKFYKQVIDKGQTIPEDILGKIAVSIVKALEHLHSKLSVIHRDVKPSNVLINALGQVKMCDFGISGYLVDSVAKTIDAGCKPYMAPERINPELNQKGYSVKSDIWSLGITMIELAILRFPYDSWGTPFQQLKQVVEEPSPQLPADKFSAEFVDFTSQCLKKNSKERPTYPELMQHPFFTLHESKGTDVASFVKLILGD

# Study 1 — observed: enzyme activity; mode: inhibitor; tested at: 0.5 µM; baseline: control
# Structure (SMILES): COC[C@H]1OC(=O)c2coc3c2[C@@]1(C)C1=C(C3=O)[C@@H]2CCC(=O)[C@@]2(C)C[C@H]1OC(C)=O
target,remaining activity [%]
"BTK (Homo sapiens, UniProt Q06187)",104
"KIT (Homo sapiens, UniProt P10721)",91.3
"MAP3K10 (Homo sapiens, UniProt Q02779)",102
"Cyclin-dependent kinase 9, with cyclin T1 (CDK9, Homo sapiens, UniProt P50750)",93.7
"PRKG1 (Homo sapiens, UniProt Q13976)",97.4
"MAPK12 (Homo sapiens, UniProt P53778)",97.7
"EPHA5 (Homo sapiens, UniProt P54756)",86.5
"MAP2K6 (Homo sapiens, UniProt P52564)",101
"MKNK2 (Homo sapiens, UniProt Q9HBH9)",80.2
"WNK2 (Homo sapiens, UniProt Q9Y3S1)",93
"CHEK1 (Homo sapiens, UniProt O14757)",102

# Study 2 — target: inorganic phosphate, free oxyanion; technique: microfluidic competitive inhibition; matrix: in vitro, cell-free expressed; tested at: not given; direction: lower = stronger binding
# Setting: derived from inhibition constants, unchanged parent 615000 nM
# Starting sequence: PafA, mature enzyme, eGFP fusion (Elizabethkingia meningoseptica, UniProt Q9KJX5); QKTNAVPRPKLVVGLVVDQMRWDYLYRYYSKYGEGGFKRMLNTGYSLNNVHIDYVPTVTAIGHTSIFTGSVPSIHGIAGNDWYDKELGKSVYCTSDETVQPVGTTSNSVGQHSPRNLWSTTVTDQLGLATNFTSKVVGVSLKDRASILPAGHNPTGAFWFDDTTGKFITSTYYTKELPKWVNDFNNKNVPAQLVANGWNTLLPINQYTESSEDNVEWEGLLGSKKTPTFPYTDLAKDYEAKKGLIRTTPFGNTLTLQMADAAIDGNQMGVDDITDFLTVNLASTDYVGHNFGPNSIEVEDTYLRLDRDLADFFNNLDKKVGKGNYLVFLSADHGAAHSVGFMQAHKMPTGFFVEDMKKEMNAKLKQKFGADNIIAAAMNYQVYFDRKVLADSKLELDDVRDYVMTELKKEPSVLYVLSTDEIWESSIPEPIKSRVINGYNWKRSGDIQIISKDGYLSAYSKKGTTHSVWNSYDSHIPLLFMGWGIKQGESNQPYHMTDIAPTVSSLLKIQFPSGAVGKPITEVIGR
Substitution,phosphate dissociation constant [µM]
Q192V,641
K461V,680
G292V,534
S412V,698
L478V,673
R400V,736
V194G,417
K363G,522

# Study 3 — observed: binding; technique: phage display NGS; molecule type: peptide; baseline: input library
# Target: UDP-N-acetylglucosamine--peptide N-acetylglucosaminyltransferase 110 kDa subunit (OGT, Homo sapiens, UniProt O15294)
# Chain of UniProt O15294 (whole entry, looked up): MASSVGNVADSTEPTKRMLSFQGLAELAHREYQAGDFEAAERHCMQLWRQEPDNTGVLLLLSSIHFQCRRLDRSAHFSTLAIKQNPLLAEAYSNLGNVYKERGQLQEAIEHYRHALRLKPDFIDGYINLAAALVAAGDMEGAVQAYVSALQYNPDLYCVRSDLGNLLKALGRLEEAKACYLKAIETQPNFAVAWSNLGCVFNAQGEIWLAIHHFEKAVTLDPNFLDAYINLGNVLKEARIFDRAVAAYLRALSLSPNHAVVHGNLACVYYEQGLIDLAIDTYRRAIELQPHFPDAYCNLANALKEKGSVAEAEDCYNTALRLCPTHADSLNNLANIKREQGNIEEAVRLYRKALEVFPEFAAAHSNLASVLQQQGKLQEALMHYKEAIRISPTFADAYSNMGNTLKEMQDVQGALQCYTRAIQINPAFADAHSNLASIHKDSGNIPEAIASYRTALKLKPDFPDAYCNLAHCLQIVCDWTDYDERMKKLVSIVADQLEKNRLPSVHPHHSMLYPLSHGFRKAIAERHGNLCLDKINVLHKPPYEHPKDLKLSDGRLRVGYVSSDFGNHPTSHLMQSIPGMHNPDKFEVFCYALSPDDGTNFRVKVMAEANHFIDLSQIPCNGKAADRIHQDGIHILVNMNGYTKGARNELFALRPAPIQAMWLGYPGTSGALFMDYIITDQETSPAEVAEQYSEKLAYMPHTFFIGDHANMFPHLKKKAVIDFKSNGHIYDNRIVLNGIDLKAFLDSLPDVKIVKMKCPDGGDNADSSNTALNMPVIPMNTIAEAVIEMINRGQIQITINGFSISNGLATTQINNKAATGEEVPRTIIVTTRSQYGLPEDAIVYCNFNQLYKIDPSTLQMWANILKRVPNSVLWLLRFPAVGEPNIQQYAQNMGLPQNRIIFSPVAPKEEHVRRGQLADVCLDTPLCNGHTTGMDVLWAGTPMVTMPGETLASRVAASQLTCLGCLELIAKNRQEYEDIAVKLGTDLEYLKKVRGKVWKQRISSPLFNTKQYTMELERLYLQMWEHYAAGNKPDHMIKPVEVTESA
Sequence,minimum log2 enrichment ratio
NMSDHHRTSYYHVRH,2.57
YLPQYQIIPKAVDYS,4.47
HVWSSKYSMHHQSSI,2.1
HYHNDFTFHFNHTFH,1.55
ITSMDYTPAYQLRYS,1.29
AGGALFSPHYQIVI,3.55
SMNLRHHDHNVHPRV,2.69
YFPPVYEMQVKHFQ,2.33

# Other studies, line by line
Compound,target,observed,mode,tested at,quantity,value
NCCc1c[nH]c2ccccc12,"DNA polymerase theta, ATPase domain (POLQ, Homo sapiens, UniProt O75417)",enzyme activity,inhibitor,77 µM,remaining activity,86.4%

# Repeated from above (study 1):
target,remaining activity [%]
"BTK (Homo sapiens, UniProt Q06187)",104
"MAP2K6 (Homo sapiens, UniProt P52564)",101
